Measurements collected from several papers.
± gives the spread as reported.

SMILES	assay	system	setting	scale	quantity	result
CCCCC/C=C\C/C=C\CCCCCCCC(=O)OC[C@H](NC(=O)[C@H](Cc1c[nH]c2ccccc12)NC(=O)[C@H](Cc1c[nH]cn1)NC(=O)[C@@H]1CCC(=O)N1)C(=O)N[C@@H](Cc1ccc(O)cc1)C(=O)N[C@H](CC(C)C)C(=O)N[C@@H](CC(C)C)C(=O)N[C@@H](CCCNC(=N)N)C(=O)N1CCC[C@H]1C(=O)NCC	HPLC	human plasma	1 mg/mL, 37 °C, 50% degraded		time to degradation	1280 min
CCCC[C@H](NC(=O)CNC(=O)[C@H](CO)NC(=O)CNC(=O)c1ccc(NN)nc1)C(=O)N[C@H]1CC(=O)NCCCC[C@@H](C(N)=O)NC(=O)[C@H](Cc2c[nH]c3ccccc23)NC(=O)[C@H](CCCNC(=N)N)NC(=O)[C@@H](Cc2ccccc2)NC(=O)[C@H](Cc2c[nH]cn2)NC1=O [technetium-99m labelled]		C57 mouse, B16/F1 melanoma, pancreas	intravenous, 2 h		uptake	0.02 ± 0.02 %ID/g
N=C(N)NCCC[C@@H]1NC(=O)[C@H](CCCCNC(=O)CC[C@H](NC(=O)CCOCCOCCOCCOCCNC(=O)CN2CCN(CC(=O)O)CCN(CC(=O)O)CCN(CC(=O)O)CC2)C(=O)NCCCC[C@@H]2NC(=O)[C@@H](Cc3ccccc3)NC(=O)[C@H](CC(=O)O)NC(=O)CNC(=O)[C@H](CCCNC(=N)N)NC2=O)NC(=O)[C@@H](Cc2ccccc2)NC(=O)[C@H](CC(=O)O)NC(=O)CNC1=O [indium-111 labelled]		female athymic nude mice, bone	intravenous, 3 µCi, 0.5 h, U-87 MG glioma xenograft		tissue uptake	1.52 ± 0.47 %ID/g
CC(C)C[C@H](NC(=O)[C@@H]1CCCN1C(=O)[C@H](CCCCN)NC(=O)[C@@H](N)CO)C(=O)N1CCC[C@H]1C(=O)N[C@@H](CCC(=O)O)C(=O)N[C@H](C(=O)N[C@H](C(=O)N[C@@H](CC(=O)O)C(=O)N[C@@H](CCC(=O)O)C(=O)N[C@@H](Cc1ccc(O)cc1)C(=O)N[C@@H](Cc1cn(CCOCCOCCOCCNC(=O)CCc2ccc(O)c(CN(CCN(CC(=O)O)Cc3cc(CCC(=O)NCCCC[C@H](NC(=O)N[C@@H](CCC(=O)O)C(=O)O)C(=O)O)ccc3O)CC(=O)O)c2)nn1)C(=O)O)[C@@H](C)O)C(C)C [gallium-68 labelled]		NMRI nu/nu mice, LNCaP tumour, spleen	10 MBq, high molar activity		standardized uptake value	0.85 g/g
CCCC[C@@H](NC(=O)[C@H](Cc1c[nH]c2ccccc12)NC(=O)[C@@H](N)CSC1CC(=O)N(CCCCCC(=O)NN=C(CO)[C@]2(O)Cc3c(O)c4c(c(O)c3[C@@H](O[C@H]3C[C@H](N)[C@H](O)[C@H](C)O3)C2)C(=O)c2c(OC)cccc2C4=O)C1=O)C(=O)N[C@@H](CCC(=O)O)C(=O)N[C@@H](C)C(=O)N[C@@H](C)C(=O)N[C@@H](Cc1ccc(O)cc1)C(=O)N[C@@H](CCC(N)=O)C(=O)N[C@H](CCCNC(=N)N)C(=O)N[C@@H](Cc1ccccc1)C(=O)N[C@@H](CC(C)C)C(N)=O (stereo partly drawn)		DMEM/F12 with HEPES	concentration not given, 37 °C		time to complete hydrolysis	< 3 h
CCCNC(=O)[C@H](CC(C)C)NC(=O)[C@H](Cc1c[nH]cn1)NC(=O)CNC(=O)[C@@H](NC(=O)[C@H](C)NC(=O)[C@H](Cc1c[nH]c2ccccc12)NC(=O)[C@H](CCC(N)=O)NC(=O)[C@@H](Cc1ccccc1)NC(=O)CCCCCNC(=O)CN1CCN(CC(=O)O)CCN(CC(=O)O)CCN(CC(=O)O)CC1)C(C)C [indium-111 labelled]	biodistribution, ligand	CF-1 mouse	intravenous, dose not given, 1 h, together with: 100 µg bombesin blocking		excretion	91.25 ± 0.44 %ID
N=C(N)NCCC[C@@H]1NC(=O)[C@H](CCCCNC(=O)CCOCCOCCOCCOCCNC(=O)CC[C@H](NC(=O)CCOCCOCCOCCOCCNC(=O)CC[C@H](NC(=O)CN2CCN(CC(=O)O)CCN(CC(=O)O)CCN(CC(=O)O)CC2)C(=O)NCCOCCOCCOCCOCCC(=O)N[C@@H](CCC(=O)NCCOCCOCCOCCOCCC(=O)NCCCC[C@@H]2NC(=O)[C@@H](Cc3ccccc3)NC(=O)[C@H](CC(=O)O)NC(=O)CNC(=O)[C@H](CCCNC(=N)N)NC2=O)C(=O)NCCOCCOCCOCCOCCC(=O)NCCCC[C@@H]2NC(=O)[C@@H](Cc3ccccc3)NC(=O)[C@H](CC(=O)O)NC(=O)CNC(=O)[C@H](CCCNC(=N)N)NC2=O)C(=O)NCCOCCOCCOCCOCCC(=O)NCCCC[C@@H]2NC(=O)[C@@H](Cc3ccccc3)NC(=O)[C@H](CC(=O)O)NC(=O)CNC(=O)[C@H](CCCNC(=N)N)NC2=O)NC(=O)[C@@H](Cc2ccccc2)NC(=O)[C@H](CC(=O)O)NC(=O)CNC1=O [indium-111 labelled]		athymic nude mice, female, U-87 MG glioma xenograft, U-87 MG tumour	intravenous, 3 µCi, 1 h		tissue uptake	11.1 ± 2.38 %ID/g
C=Cc1c(C)c2cc3nc(c4c5[nH]c(cc6nc(cc1[nH]2)C(C)=C6CC)c(C)c5C(=O)C4)[C@@H](CCC(=O)NCC(=O)N1CCC[C@H]1C(=O)N[C@@H](CC(C)C)C(=O)NCC(=O)N[C@@H](Cc1ccccc1)C(=O)N[C@@H](CCCNC(=N)N)C(=O)N[C@H](C(=O)NCC(=O)N[C@@H](CCCCN)C(N)=O)C(C)C)[C@@H]3C		C57BL/6J mouse, DMM osteoarthritis model, knee articular cartilage	intra-articular, 6 h	reference: cartilage thickness	penetration depth	~50%
CSCC[C@H](NC(=O)[C@H](CC(C)C)NC(=O)[C@H](Cc1c[nH]cn1)NC(=O)CNC(=O)[C@@H](NC(=O)[C@H](C)NC(=O)[C@H](Cc1c[nH]c2ccccc12)NC(=O)[C@H](CCC(N)=O)NC(=O)CCCCCNC(=O)CNC(=O)CNC(=O)CNC(=O)CSC(C)=O)C(C)C)C(N)=O [technetium-99m labelled]		Swiss mouse, pancreas	intravenous, 18.5 MBq, 30 min		tissue uptake	2.78 ± 0.23 %ID/g
N=C(N)NCCC[C@@H]1NC(=O)[C@H](CCCCNC(=O)CC[C@H](NC(=O)CCOCCOCCOCCOCCNC(=O)CC[C@H](NC(=O)CN2CCN(CC(=O)O)CCN(CC(=O)O)CCN(CC(=O)O)CC2)C(=O)NCCOCCOCCOCCOCCC(=O)N[C@@H](CCC(=O)NCCCC[C@@H]2NC(=O)[C@@H](Cc3ccccc3)NC(=O)[C@H](CC(=O)O)NC(=O)CNC(=O)[C@H](CCCNC(=N)N)NC2=O)C(=O)NCCCC[C@@H]2NC(=O)[C@@H](Cc3ccccc3)NC(=O)[C@H](CC(=O)O)NC(=O)CNC(=O)[C@H](CCCNC(=N)N)NC2=O)C(=O)NCCCC[C@@H]2NC(=O)[C@@H](Cc3ccccc3)NC(=O)[C@H](CC(=O)O)NC(=O)CNC(=O)[C@H](CCCNC(=N)N)NC2=O)NC(=O)[C@@H](Cc2ccccc2)NC(=O)[C@H](CC(=O)O)NC(=O)CNC1=O [indium-111 labelled]		athymic nude mice, female, U-87 MG glioma xenograft, bone	intravenous, 3 µCi, 72 h		tissue uptake	0.34 ± 0.03 %ID/g
CCCC[C@H](NC(=O)CCCCCCCNC(=O)c1ccc(NN)nc1)C(=O)N[C@H]1CC(=O)NCCCC[C@@H](C(N)=O)NC(=O)[C@H](Cc2c[nH]c3ccccc23)NC(=O)[C@H](CCCNC(=N)N)NC(=O)[C@@H](Cc2ccccc2)NC(=O)[C@H](Cc2c[nH]cn2)NC1=O [technetium-99m labelled]		C57 mouse, B16/F1 melanoma, blood	intravenous, 4 h		uptake	0.3 ± 0.14 %ID/g
N=C(N)NCCC[C@@H]1NC(=O)[C@H](CCCCNC(=O)CNC(=O)CNC(=O)CNC(=O)CC[C@H](NC(=O)CCOCCOCCOCCOCCNC(=O)CC[C@H](NC(=O)CN2CCN(CC(=O)O)CCN(CC(=O)O)CCN(CC(=O)O)CC2)C(=O)NCCOCCOCCOCCOCCC(=O)N[C@@H](CCC(=O)NCC(=O)NCC(=O)NCC(=O)NCCCC[C@@H]2NC(=O)[C@@H](Cc3ccccc3)NC(=O)[C@H](CC(=O)O)NC(=O)CNC(=O)[C@H](CCCNC(=N)N)NC2=O)C(=O)NCC(=O)NCC(=O)NCC(=O)NCCCC[C@@H]2NC(=O)[C@@H](Cc3ccccc3)NC(=O)[C@H](CC(=O)O)NC(=O)CNC(=O)[C@H](CCCNC(=N)N)NC2=O)C(=O)NCC(=O)NCC(=O)NCC(=O)NCCCC[C@@H]2NC(=O)[C@@H](Cc3ccccc3)NC(=O)[C@H](CC(=O)O)NC(=O)CNC(=O)[C@H](CCCNC(=N)N)NC2=O)NC(=O)[C@@H](Cc2ccccc2)NC(=O)[C@H](CC(=O)O)NC(=O)CNC1=O [indium-111 labelled]		female athymic nude mice, heart	intravenous, 3 µCi, 24 h, U-87 MG glioma xenograft		tissue uptake	0.26 %ID/g
CSCC[C@H](NC(=O)[C@H](CC(C)C)NC(=O)CNC(=O)[C@H](Cc1ccccc1)NC(=O)[C@H](Cc1ccccc1)NC(=O)[C@H](CCC(N)=O)NC(=O)[C@H](CCC(N)=O)NC(=O)[C@@H]1CCCN1C(=O)[C@H](CCCCNC(=O)c1ccc(-c2c3ccc(=[N+](C)C)cc-3oc3cc(N(C)C)ccc23)c(C(=O)[O-])c1)NC(=O)[C@@H]1CCCN1C(=O)[C@@H](N)CCCNC(=N)N)C(N)=O		PBS	10 nM, pH 7.4		emission maximum	575 nm
CCCC[C@H](NC(=O)CNC(=O)CNC(=O)c1ccc(NN)nc1)C(=O)N[C@H]1CC(=O)NCCCC[C@@H](C(N)=O)NC(=O)[C@H](Cc2c[nH]c3ccccc23)NC(=O)[C@H](CCCNC(=N)N)NC(=O)[C@@H](Cc2ccccc2)NC(=O)[C@H](Cc2c[nH]cn2)NC1=O [technetium-99m labelled]		C57 mouse, B16/F1 melanoma, urine	intravenous, 4 h		uptake	92.3 ± 1.73 %ID
N=C(N)NCCC[C@@H]1NC(=O)[C@H](CCCCNC(=O)CCOCCOCCOCCOCCNC(=O)CN2CCN(CC(=O)O)CCN(CC(=O)O)CCN(CC(=O)O)CC2)NC(=O)[C@@H](Cc2ccccc2)NC(=O)[C@H](CC(=O)O)NC(=O)CNC1=O [indium-111 labelled]		athymic nude mice, female, U-87 MG glioma xenograft, tumour and brain	intravenous, 1 h	reference: tumour over brain	tumour to tissue ratio	36.5 ± 13.3

Repeated from above:
SMILES	assay	system	setting	scale	quantity	result
CSCC[C@H](NC(=O)[C@H](CC(C)C)NC(=O)CNC(=O)[C@H](Cc1ccccc1)NC(=O)[C@H](Cc1ccccc1)NC(=O)[C@H](CCC(N)=O)NC(=O)[C@H](CCC(N)=O)NC(=O)[C@@H]1CCCN1C(=O)[C@H](CCCCNC(=O)c1ccc(-c2c3ccc(=[N+](C)C)cc-3oc3cc(N(C)C)ccc23)c(C(=O)[O-])c1)NC(=O)[C@@H]1CCCN1C(=O)[C@@H](N)CCCNC(=N)N)C(N)=O		PBS	10 nM, pH 7.4		emission maximum	575 nm
N=C(N)NCCC[C@@H]1NC(=O)[C@H](CCCCNC(=O)CCOCCOCCOCCOCCNC(=O)CN2CCN(CC(=O)O)CCN(CC(=O)O)CCN(CC(=O)O)CC2)NC(=O)[C@@H](Cc2ccccc2)NC(=O)[C@H](CC(=O)O)NC(=O)CNC1=O [indium-111 labelled]		athymic nude mice, female, U-87 MG glioma xenograft, tumour and brain	intravenous, 1 h	reference: tumour over brain	tumour to tissue ratio	36.5 ± 13.3
